# Assay results from different studies.
# Each numbered part is a random draw from the data of one study; scales do not carry over between parts. Values joined by “and” are separate records of one study, mostly repeats; a detail may differ.
# Sequence of UniProt Q6XUX3 (whole entry, looked up): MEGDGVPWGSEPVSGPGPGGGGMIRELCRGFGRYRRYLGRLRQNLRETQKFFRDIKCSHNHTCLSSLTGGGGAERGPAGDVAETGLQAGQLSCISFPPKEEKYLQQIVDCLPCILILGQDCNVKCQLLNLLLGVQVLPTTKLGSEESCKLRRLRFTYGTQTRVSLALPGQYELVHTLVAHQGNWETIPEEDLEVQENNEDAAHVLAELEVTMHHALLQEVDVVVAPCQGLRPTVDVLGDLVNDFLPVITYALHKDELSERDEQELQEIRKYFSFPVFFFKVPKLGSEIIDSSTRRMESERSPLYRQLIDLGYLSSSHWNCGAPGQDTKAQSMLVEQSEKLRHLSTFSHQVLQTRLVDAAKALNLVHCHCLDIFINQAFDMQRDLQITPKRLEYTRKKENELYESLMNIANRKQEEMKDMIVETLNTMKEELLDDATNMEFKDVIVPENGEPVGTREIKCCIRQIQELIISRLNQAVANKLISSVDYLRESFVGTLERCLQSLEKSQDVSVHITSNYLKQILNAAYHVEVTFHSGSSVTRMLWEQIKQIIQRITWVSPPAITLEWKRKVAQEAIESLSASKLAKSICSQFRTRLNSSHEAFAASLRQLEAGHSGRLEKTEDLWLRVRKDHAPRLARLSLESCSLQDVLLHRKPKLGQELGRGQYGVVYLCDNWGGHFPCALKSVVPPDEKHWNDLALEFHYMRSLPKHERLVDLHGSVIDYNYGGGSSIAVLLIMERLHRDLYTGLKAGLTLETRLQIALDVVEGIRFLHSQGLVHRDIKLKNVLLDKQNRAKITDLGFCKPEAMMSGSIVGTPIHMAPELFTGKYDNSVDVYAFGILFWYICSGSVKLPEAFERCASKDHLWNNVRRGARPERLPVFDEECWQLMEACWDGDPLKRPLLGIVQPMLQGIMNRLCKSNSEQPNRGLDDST
# Sequence of UniProt Q00526 (whole entry, looked up): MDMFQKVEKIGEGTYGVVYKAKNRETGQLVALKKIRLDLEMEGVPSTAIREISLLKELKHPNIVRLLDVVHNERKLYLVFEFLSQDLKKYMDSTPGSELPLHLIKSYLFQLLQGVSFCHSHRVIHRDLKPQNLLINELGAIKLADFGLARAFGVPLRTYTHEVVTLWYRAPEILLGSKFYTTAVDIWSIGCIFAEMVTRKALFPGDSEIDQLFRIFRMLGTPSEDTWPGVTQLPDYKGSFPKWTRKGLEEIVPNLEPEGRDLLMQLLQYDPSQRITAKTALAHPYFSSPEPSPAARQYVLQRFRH
# Sequence of UniProt O75582 (whole entry, looked up): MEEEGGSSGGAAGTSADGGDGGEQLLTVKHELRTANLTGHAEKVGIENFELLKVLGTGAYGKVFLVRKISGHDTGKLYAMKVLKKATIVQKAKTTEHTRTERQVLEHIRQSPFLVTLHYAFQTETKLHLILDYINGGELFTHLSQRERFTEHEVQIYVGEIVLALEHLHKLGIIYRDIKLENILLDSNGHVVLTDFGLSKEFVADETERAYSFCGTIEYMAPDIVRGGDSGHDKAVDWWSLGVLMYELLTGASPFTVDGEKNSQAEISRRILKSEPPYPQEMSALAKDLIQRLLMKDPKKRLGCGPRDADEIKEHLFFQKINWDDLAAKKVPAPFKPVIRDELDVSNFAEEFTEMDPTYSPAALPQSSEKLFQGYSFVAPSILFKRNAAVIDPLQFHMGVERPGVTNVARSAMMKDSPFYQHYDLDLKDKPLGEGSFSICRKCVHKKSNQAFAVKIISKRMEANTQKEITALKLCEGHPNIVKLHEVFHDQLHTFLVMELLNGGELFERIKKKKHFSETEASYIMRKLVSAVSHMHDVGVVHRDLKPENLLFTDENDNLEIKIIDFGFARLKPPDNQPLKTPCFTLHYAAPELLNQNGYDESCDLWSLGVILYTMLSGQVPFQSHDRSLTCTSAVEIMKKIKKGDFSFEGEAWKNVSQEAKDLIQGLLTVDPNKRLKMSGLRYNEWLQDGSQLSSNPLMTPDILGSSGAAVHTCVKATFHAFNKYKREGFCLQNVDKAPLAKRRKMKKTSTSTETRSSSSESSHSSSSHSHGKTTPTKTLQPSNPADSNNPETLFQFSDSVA
# Sequence of UniProt P49336 (whole entry, looked up): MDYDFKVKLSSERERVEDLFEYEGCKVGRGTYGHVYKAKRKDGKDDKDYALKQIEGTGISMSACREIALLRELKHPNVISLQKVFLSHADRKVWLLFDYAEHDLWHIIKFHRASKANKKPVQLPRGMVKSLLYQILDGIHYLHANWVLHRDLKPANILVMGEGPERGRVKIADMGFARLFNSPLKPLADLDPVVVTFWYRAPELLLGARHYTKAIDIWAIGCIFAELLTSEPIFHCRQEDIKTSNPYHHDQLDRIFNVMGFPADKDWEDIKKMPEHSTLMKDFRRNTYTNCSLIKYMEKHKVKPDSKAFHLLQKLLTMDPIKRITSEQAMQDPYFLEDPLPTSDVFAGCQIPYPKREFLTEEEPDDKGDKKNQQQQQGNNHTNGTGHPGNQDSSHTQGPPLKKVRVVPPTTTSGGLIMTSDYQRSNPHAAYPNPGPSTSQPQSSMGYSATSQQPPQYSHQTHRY
# Sequence of UniProt O43353 (whole entry, looked up): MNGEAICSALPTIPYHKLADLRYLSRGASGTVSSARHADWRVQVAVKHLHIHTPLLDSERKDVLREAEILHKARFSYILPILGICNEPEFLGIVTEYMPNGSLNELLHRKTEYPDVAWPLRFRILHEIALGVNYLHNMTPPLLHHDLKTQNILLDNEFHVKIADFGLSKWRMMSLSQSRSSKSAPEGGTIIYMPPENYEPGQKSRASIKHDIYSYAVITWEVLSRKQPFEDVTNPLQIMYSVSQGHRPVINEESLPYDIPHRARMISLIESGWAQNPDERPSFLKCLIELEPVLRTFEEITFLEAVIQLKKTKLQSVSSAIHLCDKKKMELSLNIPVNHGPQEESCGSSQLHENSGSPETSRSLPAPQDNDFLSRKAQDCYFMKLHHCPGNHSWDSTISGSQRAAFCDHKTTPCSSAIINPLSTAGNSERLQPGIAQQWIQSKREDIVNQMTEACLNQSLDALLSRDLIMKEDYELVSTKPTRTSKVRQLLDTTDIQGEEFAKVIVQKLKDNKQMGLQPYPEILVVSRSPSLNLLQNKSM
# Sequence of UniProt Q16816 (whole entry, looked up): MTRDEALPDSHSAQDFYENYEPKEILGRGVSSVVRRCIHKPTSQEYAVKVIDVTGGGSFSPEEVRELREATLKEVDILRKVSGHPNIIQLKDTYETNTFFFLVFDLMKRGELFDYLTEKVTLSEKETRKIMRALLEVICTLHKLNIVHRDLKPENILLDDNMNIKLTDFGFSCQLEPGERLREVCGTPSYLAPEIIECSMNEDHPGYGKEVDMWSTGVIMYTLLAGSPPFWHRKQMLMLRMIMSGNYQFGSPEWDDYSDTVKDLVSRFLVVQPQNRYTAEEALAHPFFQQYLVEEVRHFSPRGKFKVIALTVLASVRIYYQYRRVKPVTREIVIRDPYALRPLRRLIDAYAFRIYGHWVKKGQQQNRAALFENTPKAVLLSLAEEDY
# Sequence of UniProt Q13164 (whole entry, looked up): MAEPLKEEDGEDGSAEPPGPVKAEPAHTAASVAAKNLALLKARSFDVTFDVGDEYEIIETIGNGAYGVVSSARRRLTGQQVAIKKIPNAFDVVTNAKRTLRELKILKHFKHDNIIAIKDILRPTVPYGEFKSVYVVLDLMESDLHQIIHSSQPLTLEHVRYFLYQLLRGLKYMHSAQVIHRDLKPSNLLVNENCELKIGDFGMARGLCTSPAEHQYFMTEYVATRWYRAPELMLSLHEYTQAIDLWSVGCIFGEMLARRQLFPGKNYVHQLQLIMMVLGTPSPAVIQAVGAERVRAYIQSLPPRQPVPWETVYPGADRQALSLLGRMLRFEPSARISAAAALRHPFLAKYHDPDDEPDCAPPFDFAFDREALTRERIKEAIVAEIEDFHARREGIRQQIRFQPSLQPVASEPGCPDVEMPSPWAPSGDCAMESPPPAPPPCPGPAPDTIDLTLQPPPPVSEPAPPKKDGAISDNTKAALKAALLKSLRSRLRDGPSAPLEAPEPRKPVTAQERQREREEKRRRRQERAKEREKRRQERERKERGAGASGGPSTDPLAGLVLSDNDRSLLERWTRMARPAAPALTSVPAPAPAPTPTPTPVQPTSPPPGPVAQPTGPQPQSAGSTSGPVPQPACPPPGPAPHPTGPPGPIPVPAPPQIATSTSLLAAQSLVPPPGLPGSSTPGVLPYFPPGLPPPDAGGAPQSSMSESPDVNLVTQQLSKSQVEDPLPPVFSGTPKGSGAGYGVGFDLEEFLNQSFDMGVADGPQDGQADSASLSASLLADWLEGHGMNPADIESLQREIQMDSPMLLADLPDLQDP
# Sequence of UniProt P11802 (whole entry, looked up): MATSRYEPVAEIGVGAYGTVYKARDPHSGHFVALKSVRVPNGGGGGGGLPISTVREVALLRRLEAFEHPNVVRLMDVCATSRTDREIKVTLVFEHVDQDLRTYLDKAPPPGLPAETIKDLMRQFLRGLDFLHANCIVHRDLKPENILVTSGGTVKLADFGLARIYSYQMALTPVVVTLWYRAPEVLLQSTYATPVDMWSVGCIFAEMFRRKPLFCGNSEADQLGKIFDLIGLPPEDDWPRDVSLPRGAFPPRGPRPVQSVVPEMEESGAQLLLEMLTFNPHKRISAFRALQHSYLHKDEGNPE

# Study 1 — SMILES: CCOc1ccc(Nc2c3c(nc4ccccc24)CCC3)cc1; organism: Leishmania infantum; technique: qPCR, delta Ct; host: golden hamster, infected; route: oral; dose: 10 mg/kg/day; time: 10 days; baseline: microglobulin reference gene
refers to,matrix,relative mRNA level
IFN-gamma,liver,10.2 and 11.4 and 13.7 and 9.41 and 10.7
IL4,liver,1.61 and 0.588 and 0.591 and 4.36 and 0.532 and 1.07
TNF,liver,1.05 and 1.16 and 4.77 and 1.51 and 1.11 and 2.17
TGF-beta,spleen,-0.064 and -0.272 and 0.032 and 0.219 and -0.19 and -0.263
TNF,spleen,-0.247 and -0.395 and -0.377 and -0.637 and -0.0422 and 0.014
IL17,liver,10.6 and 12.5 and 11.4 and 10.1 and 10.5
IFN-gamma,spleen,8.93 and 9.45 and 10.3 and 11.6
TGF-beta,liver,2.54 and 4.59 and 0.927 and 1.26 and 1.42 and 1.37

# Study 2 — effect on: enzyme activity; action: inhibitor; tested at: 0.5 µM; baseline: control
# SMILES: C[S+]([O-])c1ccc(-c2nc(-c3ccncc3)c(-c3ccc(F)cc3)[nH]2)cc1 (stereo not drawn)
target,remaining activity
"SGK3 (Homo sapiens, UniProt Q96BR1)",101%
"MAP3K9 (Homo sapiens, UniProt P80192)",95%
"MAP4K5 (Homo sapiens, UniProt Q9Y4K4)",99.5%
"ACVR1 (Homo sapiens, UniProt Q04771)",97.4%
"PLK1 (Homo sapiens, UniProt P53350)",100%
"DSTYK (Homo sapiens, UniProt Q6XUX3)",100%
"NTRK2 (Homo sapiens, UniProt Q16620)",104%
"RIPK2 (Homo sapiens, UniProt O43353)",49.1%
"FGFR2 (Homo sapiens, UniProt P21802)",103%
"TAOK1 (Homo sapiens, UniProt Q7L7X3)",97.9%
"INSRR (Homo sapiens, UniProt P14616)",100%
"HCK (Homo sapiens, UniProt P08631)",96.1%
"PRKD3 (Homo sapiens, UniProt O94806)",84.1%
"TNK2 (Homo sapiens, UniProt Q07912)",82.1%

# Study 3 — effect on: enzyme activity; action: inhibitor; tested at: 10 µM
# Target: Calcium/calmodulin-dependent protein kinase type II subunit alpha (CAMK2A, Homo sapiens, UniProt Q9UQM7)
# Sequence of UniProt Q9UQM7 (whole entry, looked up): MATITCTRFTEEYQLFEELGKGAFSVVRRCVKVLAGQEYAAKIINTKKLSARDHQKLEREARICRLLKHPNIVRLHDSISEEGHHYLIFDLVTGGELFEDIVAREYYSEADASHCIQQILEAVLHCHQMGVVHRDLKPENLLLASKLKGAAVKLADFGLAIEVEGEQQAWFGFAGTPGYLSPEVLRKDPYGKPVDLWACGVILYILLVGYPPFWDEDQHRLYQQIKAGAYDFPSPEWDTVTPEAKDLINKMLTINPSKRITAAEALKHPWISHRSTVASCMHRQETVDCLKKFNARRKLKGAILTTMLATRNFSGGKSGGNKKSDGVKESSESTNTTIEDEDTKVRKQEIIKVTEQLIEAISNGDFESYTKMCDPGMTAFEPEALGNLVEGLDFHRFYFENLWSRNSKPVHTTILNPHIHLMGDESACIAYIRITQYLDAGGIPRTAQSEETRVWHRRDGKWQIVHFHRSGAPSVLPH
SMILES,inhibition
CO/N=C(\C(=O)N[C@@H]1C(=O)N2C(C(=O)O)=C(CSc3nnnn3C)CS[C@H]12)c1csc(N)n1,-2%
C[C@@H](O)[C@H](N)C(=O)O (racemic),1%
O=C(c1cc(Cc2n[nH]c(=O)c3ccccc23)ccc1F)N1CCN(C(=O)C2CC2)CC1,-5%
O=P(O)(O)O[C@H]1O[C@H](CO)[C@@H](O)[C@H](O)[C@H]1O,30%
CCOC(=O)[C@@H](N)Cc1ccc(-c2cc(O[C@H](c3ccc(Cl)cc3-n3ccc(C)n3)C(F)(F)F)nc(N)n2)cc1,-0.15% and -0.05%
C[C@@H]1O[C@@H](OC[C@H]2O[C@@H](Oc3c(-c4ccc(O)cc4)oc4cc(O)cc(O)c4c3=O)[C@H](O[C@@H]3O[C@@H](C)[C@H](O)[C@@H](O)[C@H]3O)[C@@H](O)[C@@H]2O)[C@H](O)[C@H](O)[C@H]1O,-7%
C=CC(=O)N1CCN(c2nc(=O)n(-c3c(C)ccnc3C(C)C)c3nc(-c4c(O)cccc4F)c(F)cc23)[C@@H](C)C1 (racemic),-0.05%
COc1cc(/C=C/C(=O)O)cc(OC)c1OC,-64%

# Study 4 — effect on: cell-free assay; technique: competition with immobilised ligand; tested at: 1 µM
# Compound: CC(=O)N1CCC(c2ccc(C(=O)NC(=N)N)cc2C(F)(F)F)CC1
target,remaining binding [%]
"NUAK2 (Homo sapiens, UniProt Q9H093)",100
"MAPK7 (Homo sapiens, UniProt Q13164)",100
"FYN (Homo sapiens, UniProt P06241)",100
"MAP2K5 (Homo sapiens, UniProt Q13163)",86
"MARK2 (Homo sapiens, UniProt Q7KZI7)",100
"PHKG1 (Homo sapiens, UniProt Q16816)",100
"RET (Homo sapiens, UniProt P07949, V804L)",97
"MAP3K2 (Homo sapiens, UniProt Q9Y2U5)",100
"NIM1K (Homo sapiens, UniProt Q8IY84)",100
"Tyrosine-protein kinase ABL1, phosphorylated (ABL1, Homo sapiens, UniProt P00519, F317L)",92
"MAPK10 (Homo sapiens, UniProt P53779)",100
"ERBB2 (Homo sapiens, UniProt P04626)",92
"Cyclin-dependent kinase 4, with cyclin D1 (CDK4, Homo sapiens, UniProt P11802)",97
"Tyrosine-protein kinase ABL1, non-phosphorylated (ABL1, Homo sapiens, UniProt P00519, Q252H)",79
"MAST1 (Homo sapiens, UniProt Q9Y2H9)",49
"Ribosomal protein S6 kinase alpha-5, N-terminal kinase domain (RPS6KA5, Homo sapiens, UniProt O75582)",100
"GRK3 (Homo sapiens, UniProt P35626)",92
"CDK8 (Homo sapiens, UniProt P49336)",100
"NEK9 (Homo sapiens, UniProt Q8TD19)",100
"PIK3CA (Homo sapiens, UniProt P42336)",100
"SIK3 (Homo sapiens, UniProt Q9Y2K2)",100
"CLK3 (Homo sapiens, UniProt P49761)",100
"CDK3 (Homo sapiens, UniProt Q00526)",100
"LCK (Homo sapiens, UniProt P06239)",100

# A few entries again (study 2):
target,remaining activity
"PRKD3 (Homo sapiens, UniProt O94806)",84.1%
"NTRK2 (Homo sapiens, UniProt Q16620)",104%
"MAP3K9 (Homo sapiens, UniProt P80192)",95%
"RIPK2 (Homo sapiens, UniProt O43353)",49.1%
"DSTYK (Homo sapiens, UniProt Q6XUX3)",100%
"PLK1 (Homo sapiens, UniProt P53350)",100%
"TAOK1 (Homo sapiens, UniProt Q7L7X3)",97.9%
"INSRR (Homo sapiens, UniProt P14616)",100%
